Experimental data of several laboratories.
Compare with care: the assays were run in different laboratories. Values joined by “and” are separate records of one study, mostly repeats; a detail may differ. ± marks the error that the study gave.
UniProt Q8WXR4, sequence (whole entry, looked up): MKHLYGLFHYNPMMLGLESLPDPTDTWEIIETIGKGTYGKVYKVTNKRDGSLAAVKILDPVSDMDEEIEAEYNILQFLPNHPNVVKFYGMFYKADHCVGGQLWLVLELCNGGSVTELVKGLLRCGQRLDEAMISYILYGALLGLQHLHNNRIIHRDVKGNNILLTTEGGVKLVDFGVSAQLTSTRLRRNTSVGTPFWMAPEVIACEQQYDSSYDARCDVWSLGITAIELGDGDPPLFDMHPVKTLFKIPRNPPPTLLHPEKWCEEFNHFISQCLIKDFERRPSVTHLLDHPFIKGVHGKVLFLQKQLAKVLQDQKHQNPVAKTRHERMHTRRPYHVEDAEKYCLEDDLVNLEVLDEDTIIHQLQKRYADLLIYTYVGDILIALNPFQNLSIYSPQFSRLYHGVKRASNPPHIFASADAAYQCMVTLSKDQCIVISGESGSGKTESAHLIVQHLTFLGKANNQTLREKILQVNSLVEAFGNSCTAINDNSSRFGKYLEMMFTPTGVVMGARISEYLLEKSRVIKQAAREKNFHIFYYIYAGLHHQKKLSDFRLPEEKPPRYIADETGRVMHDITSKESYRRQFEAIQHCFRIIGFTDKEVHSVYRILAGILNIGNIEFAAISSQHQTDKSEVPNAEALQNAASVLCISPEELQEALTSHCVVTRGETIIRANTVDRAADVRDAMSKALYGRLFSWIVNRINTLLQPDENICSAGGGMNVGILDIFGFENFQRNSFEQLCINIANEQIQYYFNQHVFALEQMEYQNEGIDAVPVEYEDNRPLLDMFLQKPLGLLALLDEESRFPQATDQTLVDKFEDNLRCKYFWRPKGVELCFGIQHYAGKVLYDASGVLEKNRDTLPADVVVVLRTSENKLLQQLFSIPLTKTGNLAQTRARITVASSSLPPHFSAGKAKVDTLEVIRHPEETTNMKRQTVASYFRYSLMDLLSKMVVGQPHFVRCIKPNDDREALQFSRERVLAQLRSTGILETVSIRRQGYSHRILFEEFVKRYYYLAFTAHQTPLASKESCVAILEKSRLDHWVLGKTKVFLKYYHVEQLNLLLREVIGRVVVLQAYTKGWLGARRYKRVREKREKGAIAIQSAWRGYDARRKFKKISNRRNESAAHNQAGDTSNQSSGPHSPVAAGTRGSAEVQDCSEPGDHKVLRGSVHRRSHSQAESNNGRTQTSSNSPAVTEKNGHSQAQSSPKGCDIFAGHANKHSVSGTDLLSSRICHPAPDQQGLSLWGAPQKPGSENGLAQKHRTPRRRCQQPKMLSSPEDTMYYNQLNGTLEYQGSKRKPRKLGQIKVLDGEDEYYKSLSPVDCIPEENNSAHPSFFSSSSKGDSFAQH
UniProt P05181, sequence (whole entry, looked up): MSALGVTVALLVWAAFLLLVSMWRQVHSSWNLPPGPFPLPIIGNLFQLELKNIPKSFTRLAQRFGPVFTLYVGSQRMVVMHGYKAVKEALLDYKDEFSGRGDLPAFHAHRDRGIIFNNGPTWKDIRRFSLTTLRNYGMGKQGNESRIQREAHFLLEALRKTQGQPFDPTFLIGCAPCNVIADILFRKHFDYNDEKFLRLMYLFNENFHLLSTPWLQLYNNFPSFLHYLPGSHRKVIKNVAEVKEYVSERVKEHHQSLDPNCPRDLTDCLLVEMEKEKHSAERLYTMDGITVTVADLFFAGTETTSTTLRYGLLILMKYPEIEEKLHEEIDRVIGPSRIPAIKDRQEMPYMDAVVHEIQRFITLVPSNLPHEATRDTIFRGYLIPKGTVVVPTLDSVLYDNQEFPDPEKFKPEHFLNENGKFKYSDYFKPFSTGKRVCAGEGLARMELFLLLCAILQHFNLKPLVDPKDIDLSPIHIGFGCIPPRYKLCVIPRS
UniProt P35348, sequence (whole entry, looked up): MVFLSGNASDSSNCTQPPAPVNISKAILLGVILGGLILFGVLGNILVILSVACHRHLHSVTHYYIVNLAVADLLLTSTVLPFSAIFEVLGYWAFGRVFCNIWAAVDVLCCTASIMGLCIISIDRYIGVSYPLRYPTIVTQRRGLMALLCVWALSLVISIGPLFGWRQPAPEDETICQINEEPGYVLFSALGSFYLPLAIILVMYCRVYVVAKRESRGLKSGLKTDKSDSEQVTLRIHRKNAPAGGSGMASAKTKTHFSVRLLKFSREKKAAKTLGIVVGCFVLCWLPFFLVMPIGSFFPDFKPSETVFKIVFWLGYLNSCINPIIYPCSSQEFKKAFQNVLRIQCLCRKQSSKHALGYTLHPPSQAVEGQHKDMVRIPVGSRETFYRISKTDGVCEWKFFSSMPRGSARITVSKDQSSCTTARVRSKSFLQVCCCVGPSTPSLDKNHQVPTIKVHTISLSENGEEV
UniProt Q969G3, sequence (whole entry, looked up): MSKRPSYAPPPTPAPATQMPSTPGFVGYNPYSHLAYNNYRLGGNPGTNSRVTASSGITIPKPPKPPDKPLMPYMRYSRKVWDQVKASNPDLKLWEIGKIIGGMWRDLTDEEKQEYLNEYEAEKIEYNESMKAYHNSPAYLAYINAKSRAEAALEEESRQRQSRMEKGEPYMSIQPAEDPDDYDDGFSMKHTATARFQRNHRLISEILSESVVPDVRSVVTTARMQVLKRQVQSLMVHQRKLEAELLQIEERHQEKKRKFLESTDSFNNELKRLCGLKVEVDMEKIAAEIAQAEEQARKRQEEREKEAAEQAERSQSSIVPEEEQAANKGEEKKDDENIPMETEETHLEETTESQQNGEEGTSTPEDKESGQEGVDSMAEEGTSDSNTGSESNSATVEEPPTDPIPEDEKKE
UniProt Q9Y5N1, sequence (whole entry, looked up): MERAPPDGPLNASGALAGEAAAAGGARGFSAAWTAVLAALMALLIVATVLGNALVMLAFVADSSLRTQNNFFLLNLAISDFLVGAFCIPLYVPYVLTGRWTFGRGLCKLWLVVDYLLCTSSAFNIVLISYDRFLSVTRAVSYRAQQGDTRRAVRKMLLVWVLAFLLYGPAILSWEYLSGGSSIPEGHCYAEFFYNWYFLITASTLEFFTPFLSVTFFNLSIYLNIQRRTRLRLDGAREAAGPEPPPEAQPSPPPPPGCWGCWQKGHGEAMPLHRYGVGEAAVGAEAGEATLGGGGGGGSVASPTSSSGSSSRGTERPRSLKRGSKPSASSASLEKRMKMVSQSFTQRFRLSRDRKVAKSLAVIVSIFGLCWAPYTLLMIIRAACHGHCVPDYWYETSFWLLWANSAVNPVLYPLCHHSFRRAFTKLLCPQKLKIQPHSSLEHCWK

Under “revertant colonies per plate”, `COc1cccc(-c2n[nH]c(SCc3ccccn3)n2)c1OC` is recorded as 10 (Escherichia coli; Ames test, preincubation; WP2 uvrA; 0.50 mg/plate, without S9).
With `Cc1cc2c(c(O)c1O)C(=O)c1c(O)cc(O)cc1C2=O` the cell viability was 165 ± 29.3% (HK-2 co-cultured with HepaRG; MTT; 266.67 µM, 24 h; baseline: untreated control).
Under “log2 fold change”, `CC[C@H](C)[C@@H]1NC(=O)[C@@H]2CCCN2C(=O)[C@H](CC(C)C)NC(=O)[C@H](CC(C)C)NC(=O)CNC(=O)[C@@H](NC(=O)[C@@H](NC(=O)[C@H](CC(=O)O)NC(=O)CNC(=O)[C@@H](NC(=O)[C@H](C)NC(=O)CNC(=O)[C@H](CCCCN)NC(=O)[C@H](CC(C)C)NC(=O)[C@H](CC(C)C)NC(=O)[C@H](CCCCN)NC(=O)CNC(=O)[C@@H](NC(=O)[C@@H](N)CC(C)C)C(C)C)C(C)C)C(C)C)CSSC[C@@H](C(=O)O)NC1=O` is recorded as 0.869 (RNA-seq, measured: Ccdc39; mouse, traumatic brain injury model, frontal cortex and hippocampus; dose not given; baseline: TBI alone).
For `O=C1c2ccccc2C(=O)c2ccccc21`, the cell viability was 47.5 ± 2.53% (HepaRG co-cultured with HK-2; MTT; 133.33 µM, 24 h; baseline: untreated control).
The hatching rate of `[Cl-].[Cl-].[Pt+2].[Ru+2].c1ccc(-c2nccnc2-c2ccccn2)nc1.c1cnc2c(c1)ccc1cccnc12.c1cnc2c(c1)ccc1cccnc12` is reported as 40 ± 6.1% (Danio rerio; embryos; 30 µM, 96 h).
`CC[C@H](C)[C@H](NC(=O)[C@H](Cc1ccccc1)NC(=O)[C@H](CCC(=O)O)NC(=O)[C@H](CCCNC(=N)N)NC(=O)[C@H](C)NC(=O)[C@H](C)NC(=O)[C@H](CCC(N)=O)NC(=O)[C@H](CCC(=O)O)NC(=O)[C@H](CCC(=O)O)NC(=O)[C@H](CC(C)C)NC(=O)[C@H](Cc1ccc(O)cc1)NC(=O)[C@H](CO)NC(=O)[C@H](CO)NC(=O)[C@@H](NC(=O)[C@H](CC(=O)O)NC(=O)[C@H](CO)NC(=O)[C@@H](NC(=O)[C@H](Cc1ccccc1)NC(=O)[C@@H](NC(=O)CNC(=O)[C@H](CCC(=O)O)NC(=O)[C@H](C)NC(=O)CCc1c[nH]cn1)[C@@H](C)O)[C@@H](C)O)C(C)C)C(=O)N[C@@H](C)C(=O)N[C@@H](Cc1c[nH]c2ccccc12)C(=O)N[C@@H](CC(C)C)C(=O)N[C@H](C(=O)N[C@@H](CCCNC(=N)N)C(=O)NCC(=O)N[C@@H](CCCNC(=N)N)C(=O)N[C@@H](CCCCNC(=O)COCCOCCNC(=O)COCCOCCNC(=O)CC[C@H](NC(=O)CCCCCCCCCCCCCCCCC(=O)O)C(=O)O)C(=O)NCC(=O)NCC(=O)N[C@@H](CO)C(=O)N[C@@H](CCCCNc1c(NCCCCCN(O)C(=O)CCC(=O)NCCCCCN(O)C(=O)CCC(=O)NCCCCCN(O)C(C)=O)c(=O)c1=O)C(=O)O)C(C)C` [zirconium-89 labelled] gave a tissue uptake of 0.75 %ID/g (rat, liver; sc, 3 nmol/kg, 24 h, ex vivo).
For `CN1CCN(c2cc(-c3ccncc3)c(-c3ccc4ccccc4c3)nn2)CC1`, the inhibition was -1.7% (Alpha-1A adrenergic receptor (ADRA1A, Homo sapiens, UniProt P35348); antagonist, FLIPR; 10 µM).
Under “point of departure”, `O=c1ccc2ccccc2o1` is recorded as 682 µM (HepG2; measured: glutathione content; 24 h, ATP, GSH, MMP, ROS panel).
`COc1cc(Nc2ncc(F)c(Nc3ccc4c(n3)NC(=O)C(C)(C)O4)n2)cc(OC)c1OC` has an IC50 of over 10 µM (Histamine H3 receptor (HRH3, Homo sapiens, UniProt Q9Y5N1)).
For `C[C@H]1CN(c2n[nH]c3nc(N[C@H]4CC[C@H](NS(=O)(=O)CCC(F)(F)F)CC4)ncc23)CCO1`, the remaining binding was 1.2 (SWI/SNF-related matrix-associated actin-dependent regulator of chromatin subfamily E member 1 (Homo sapiens, UniProt Q969G3); Kinobeads competition, measured: SMARCE1; 20 µM, unit not given; baseline: vehicle).
`CC(=O)OC[C@H]1O[C@@H](Oc2cc(O)cc3cc4oc(C)cc(=O)c4c(O)c23)[C@H](O)[C@@H](O)[C@@H]1O` has a cell viability of 91.5 ± 9.75% (HK-2 co-cultured with HepaRG; MTT; 133.33 µM, 48 h; baseline: untreated control).
`CC(=O)N1CCC(C(=O)N2CCN3C(=O)c4cc(-c5ccccc5)ccc4NC(=O)C3C2)CC1` (stereo not shown) — result for “fold increase in revertants”: 1 (Salmonella typhimurium; TA1537; 1581 µg/plate; baseline: vehicle).
`COc1ccc2c(c1OC)C(=O)c1c(cc(C)c(O)c1OC)C2=O` gave a cell viability of 76.3 ± 4.16% (HK-2 co-cultured with HepaRG; MTT; 33.33 µM, 48 h; baseline: untreated control).
The induction factor of `OC(CCN1CC=C(c2ccc(F)cc2)CC1)c1ccc(F)c2ccccc12` (stereo not shown) is reported as 1.3 (Salmonella typhimurium; genotoxicity, SOS/umu test; TA1535/pSK1002; 0.031 mg/mL, 4 h, with S9, full range).
`CC(C)CC(=O)OC[C@H]1O[C@@](C#N)(c2ccc3c(N)ncnn23)[C@H](O)[C@@H]1O` gave a half-life of over 6.55 h (Cytochrome P450 2E1 (CYP2E1, Homo sapiens, UniProt P05181); metabolic stability; recombinant enzyme; 1 µM).
With `Cc1cc(C(=O)NC(C)(C)COc2cccc3c2C(N)=NS(=O)(=O)N3)cc(C)n1` the revertant ratio was 1.3 (Salmonella typhimurium; Ames test, initial; TA1535; 5000 µg/plate; baseline: solvent control).
For `COc1cc2ncnc(Nc3cccc(Cl)c3)c2cc1OC`, the viability was 98.4% and 100% and 95.1% (HaCaT; 1.235 µM, 60 h).
`[Cl-].[Cl-].[Pt+2].[Ru+2].c1ccc(-c2nc3cc4ccccc4cc3nc2-c2ccccn2)nc1.c1cnc2c(c1)ccc1cccnc12.c1cnc2c(c1)ccc1cccnc12` gave a survival rate of 80 ± 3.5% (Danio rerio; embryos; 60 µM, 48 h).
`COc1ccc(N2C(=O)N(c3c(C)cccc3Cl)Cc3cnc(Nc4ccc(C5CCN(C)CC5)cc4OC)nc32)nc1` gave an inhibition of 16% (Myosin-IIIb (MYO3B, Homo sapiens, UniProt Q8WXR4); kinase activity; 0.5 µM).

A few entries again:
The induction factor of `OC(CCN1CC=C(c2ccc(F)cc2)CC1)c1ccc(F)c2ccccc12` (stereo not shown) is reported as 1.3 (Salmonella typhimurium; genotoxicity, SOS/umu test; TA1535/pSK1002; 0.031 mg/mL, 4 h, with S9, full range).
`CC(C)CC(=O)OC[C@H]1O[C@@](C#N)(c2ccc3c(N)ncnn23)[C@H](O)[C@@H]1O` gave a half-life of over 6.55 h (Cytochrome P450 2E1 (CYP2E1, Homo sapiens, UniProt P05181); metabolic stability; recombinant enzyme; 1 µM).
With `Cc1cc(C(=O)NC(C)(C)COc2cccc3c2C(N)=NS(=O)(=O)N3)cc(C)n1` the revertant ratio was 1.3 (Salmonella typhimurium; Ames test, initial; TA1535; 5000 µg/plate; baseline: solvent control).
